# Assay results of several laboratories.
# Numbered parts are unrelated; each lists some results of a single study.

# Sample 1 — species: human; sample: microsomes or S9; tested at: 2 µM; time: 0.5 h
Structure (SMILES),remaining compound [%]
O=c1oc2ccccc2n1Cc1c(-c2ccc(F)cc2)nc2ccccn12,84.9
O=C(c1cccnc1Cl)N1CCCCC1c1ccccc1 (stereo not shown),63.8
CCC(=O)N1CCCC1c1nc2ccccc2n1CC(=O)N(c1ccccc1)C(C)C (stereo not shown),9.23
CC(C)(O)CC[C@@H](O)[C@](C)(O)C1CC[C@@]2(O)C3=CC(=O)C4C[C@@H](O)[C@@H](O)C[C@]4(C)C3CC[C@]12C (stereo partly shown),76.2
Cc1ccc(-c2nnc(C(C)N3CCc4sccc4C3)o2)cc1 (stereo not shown),4.39
O=C(O)c1cccnc1C(=O)OCc1ccccc1,26.5
COc1ccc(CN(Cc2ccc(OC)cc2)c2ncnc3c2[nH]c(=O)n3[C@H](C)c2cc3ccccc3nc2-c2ccccc2C)cc1,57.2
c1ccc(/N=c2/nc(N3CCN(C(c4ccccc4)c4ccccc4)CC3)nc(Nc3ccccc3)[nH]2)cc1,> 99
CCN(c1ccc2c(c1)OCO2)c1cc(Cl)nc(Cl)n1,50.1
CC(C)(C)c1cc(NC(=O)CSC2=NN/C(=C3\C=c4ccccc4=N3)N2c2ccccc2)on1,46.7
Brc1cnn(CC2CCN(Cc3cncs3)CC2)c1,99.9
O=S(=O)(Nc1cccn2c(C3CCC3)nnc12)c1ccc2c(c1)OCCO2,63.2

# Sample 2 — read-out: radioligand binding; technique: radioligand displacement; tested at: 10 µM
# Target: Translocator protein (Tspo, Rattus norvegicus, UniProt P16257)
# Chain of UniProt P16257 (whole entry, looked up): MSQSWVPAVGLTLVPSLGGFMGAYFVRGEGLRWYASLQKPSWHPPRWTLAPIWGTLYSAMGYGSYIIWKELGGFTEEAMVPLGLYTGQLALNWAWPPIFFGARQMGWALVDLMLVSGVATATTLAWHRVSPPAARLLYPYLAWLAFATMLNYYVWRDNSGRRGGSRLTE
Compound,inhibition
COc1ccc2c(O[C@@H]3C[C@H]4C(=O)N[C@]5(C(=O)O)CC5/C=C\CCCCC[C@H](NC(=O)OC5CCCC5)C(=O)N4C3)cc(-c3csc(NC(=O)C(C)C)n3)nc2c1C (stereo partly shown),-18.6%
CSc1cccnc1N1CCN(Cc2nc3ccccc3[nH]2)CC1,-16.4%
C[C@H](c1ccc(F)cc1)N(Cc1ccc(Cl)c(C(=O)O)c1)C(=O)c1cnc2ccccc2c1,-9.88%
C[C@@H]1CN(c2cc(-c3n[nH]c4ccc(OC5(C)CC5)cc34)ncn2)C[C@H](C)O1,5.96%
CN(C)C(=O)c1sc2nc(N3CCC(S(C)(=O)=O)CC3)cc(C(F)(F)F)c2c1N,27.9%
Nc1cnc(N2CCc3cc(S(=O)(=O)Nc4c(F)cc(Cl)cc4F)cc(N4CCCC4=O)c32)nc1,-2.65%
CNC(=O)c1cc(C(=O)N[C@H]2[C@@H]3COC[C@@H]32)cc2c1O[C@H](CF)[C@H]2c1ccccc1,9.06%
NS(=O)(=O)c1cc(NC(=O)Cc2ccccc2)ccc1Oc1cccc(Cl)c1,5.06%
CNC(=O)c1ccc(Nc2ncc(C(F)(F)F)c(NCc3nccnc3N(C)S(C)(=O)=O)n2)cc1,31.4%
COCCOc1nc(-c2ccc(Cl)nc2)nc2c1CN(C(=O)c1ncn3ccccc13)CC2,24.9%
Cc1cc(-n2nc(Cc3cc(F)cc(C(F)(F)F)c3)nc2C)ccc1C(N)=O,7.23%
C[C@H](c1ccnc(Nc2nc3ccc(-c4cc(N(C)C)ncn4)cc3[nH]2)c1)N1CCN(C(=O)CC(F)(F)F)CC1,-2.73%
CCC(=O)N[C@@H]1CC[C@H](C(=O)N(C)c2ccc(-c3nc4ccccc4o3)cc2)C1,5.21%
COc1cc(-c2cn(C3CCc4ccccc4N(CC(F)(F)F)C3=O)nn2)ccc1-n1ccc(C)n1 (stereo not shown),59.5%
CS(=O)(=O)N1CCCC(NC(=O)[C@H](CCC2CCCCC2)NC(=O)c2ccc(CNC(=O)c3cnc4ccccn34)cc2)C1 (stereo partly shown),13.2%
CC(C)(C)OC(=O)N1CCCC1CNC1CCC(c2cc(F)ccc2F)(S(=O)(=O)c2ccc(Cl)cc2)CC1 (stereo not shown),-11.2%
c1ccc(C2CCN(c3cnc4c(N5CCOCC5)nccn34)CC2)cc1,-22.8%
O=C(NNS(=O)(=O)c1ccccc1)c1cc(-c2ccnnc2)ccc1F,-3.6%
Cc1cc2c(-c3ccco3)cnc(N[C@@H]3CCN(C)C[C@H]3C(=O)NC3CCCCC3)c2[nH]c1=O,3.9%
CCOc1ccc(S(=O)(=O)Nc2ccc(Cl)cc2C#Cc2cnc(C(=O)O)cc2OC)c2ncccc12,45%
CCOc1cc(N2C3COCC2CN(C(=O)[C@H]2C[C@H](O)CN2c2ccc(Cl)cc2)C3)ccc1Cl,54.2%
CC(=O)Nc1nc(CN2CCC[C@H](Cc3cc(C)nc(C)c3)C2)cs1,11.2%

# Sample 3 — action: antagonist
# Target: Beta-1 adrenergic receptor (ADRB1, Homo sapiens, UniProt P08588)
# Chain of UniProt P08588 (whole entry, looked up): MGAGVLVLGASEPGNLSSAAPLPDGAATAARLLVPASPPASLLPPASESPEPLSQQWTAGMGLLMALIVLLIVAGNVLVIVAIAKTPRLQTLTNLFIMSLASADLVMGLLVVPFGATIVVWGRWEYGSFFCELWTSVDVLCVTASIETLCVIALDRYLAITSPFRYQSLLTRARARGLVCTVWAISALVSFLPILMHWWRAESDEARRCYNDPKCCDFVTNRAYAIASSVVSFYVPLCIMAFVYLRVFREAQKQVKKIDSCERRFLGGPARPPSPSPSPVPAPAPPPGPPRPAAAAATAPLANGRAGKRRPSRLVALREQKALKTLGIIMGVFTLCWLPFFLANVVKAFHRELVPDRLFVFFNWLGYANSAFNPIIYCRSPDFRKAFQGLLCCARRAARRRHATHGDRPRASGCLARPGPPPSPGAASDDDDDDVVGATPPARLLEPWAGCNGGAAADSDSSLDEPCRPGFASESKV
SMILES,IC50 [µM]
NCC(Cc1ccc(O)cc1)c1ccc(O)cc1 (stereo not shown),≥ 100
COc1ccccc1N1CCN(C(=O)C2CC(=O)N(CCN3CCOCC3)C2)CC1 (stereo not shown),≥ 100
COCCNCc1ccc(-c2cc3nccc(Oc4ccc(NC(=O)C5(C(=O)Nc6ccc(F)cc6)CC5)cc4F)c3s2)nc1,≥ 100
CN(c1ccccc1)c1cc(=O)c2ccnc(-c3ccncc3)c2o1,≥ 100
CC(C)c1ccccc1Nc1nnc(-c2cc(-c3cccnc3)nc3ccccc23)s1,≥ 100
O=C1c2c(nc(COc3cccc(N4CCOCC4)c3)n2Cc2ccccc2)NCCN1CC1CC1,≥ 100
Cn1cc(-c2cnc(Nc3ccc(F)cc3)c3c2CCO3)cn1,≥ 100
Cc1oc(C(O)c2cccc(O)c2)nc1C(=O)N1CCOCC1 (stereo not shown),≥ 100
CCN(CC)C(=O)Nc1ccc(OCC(O)CNC(C)(C)C)c(C(C)=O)c1 (stereo not shown),≥ 100
Cc1noc2c(-c3cccnc3N3CC(O)C3)cc(-c3ccccc3)nc12,≥ 100
CCOc1ccc(C(O)Cn2ccn3nc(-c4ccccc4C)cc3c2=O)cc1 (stereo not shown),≥ 100
Cc1noc(C)c1-c1cc2cc(CO)oc2c(NC2CCOCC2)n1,≥ 100
COc1ccccc1N1CCN([C@@H]2[C@H](O)[C@H](CO)O[C@@H]2CNC(C)C)CC1,≥ 100
Cc1cc(=O)oc2cc(OCC(=O)NC3CCCc4c3[nH]c3ccccc43)ccc12 (stereo not shown),≥ 100

# Sample 4 — read-out: enzyme activity; action: inhibitor; tested at: 0.5 µM; reference: control
# Target: Casein kinase I isoform gamma-1 (CSNK1G1, Homo sapiens, UniProt Q9HCP0)
# Chain of UniProt Q9HCP0 (whole entry, looked up): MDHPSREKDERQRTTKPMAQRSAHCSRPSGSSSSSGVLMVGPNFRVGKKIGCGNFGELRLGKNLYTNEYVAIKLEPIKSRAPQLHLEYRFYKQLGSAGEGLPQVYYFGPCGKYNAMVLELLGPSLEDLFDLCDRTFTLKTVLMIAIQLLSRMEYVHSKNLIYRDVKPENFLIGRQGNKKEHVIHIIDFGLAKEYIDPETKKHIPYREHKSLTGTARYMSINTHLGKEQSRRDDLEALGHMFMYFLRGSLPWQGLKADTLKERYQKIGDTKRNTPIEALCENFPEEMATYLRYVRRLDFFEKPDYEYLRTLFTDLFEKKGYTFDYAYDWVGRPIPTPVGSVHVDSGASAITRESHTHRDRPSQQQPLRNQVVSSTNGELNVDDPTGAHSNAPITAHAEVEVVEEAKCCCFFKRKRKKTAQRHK
Structure (SMILES),remaining activity [%]
CCC(=O)Nc1ccc2ncnc(Nc3cccc(Br)c3)c2c1,98.6
COc1ccc(Cl)cc1NC(=O)Nc1cc(C)nc2ccccc12,97.9
CCN1/C(=C/C(C)=O)Sc2ccc(OC)cc21,87.8
CC(=O)O/N=C1/C(c2c(O)[nH]c3cc(Br)ccc23)=Nc2ccccc21,93.9
Cn1cnc2cc3c(Nc4cccc(Br)c4)ncnc3cc21,104
Cc1ccc(NC(=O)c2ccc(CN3CCN(C)CC3)cc2)cc1Nc1nccc(-c2cccnc2)n1,101
COc1cc2ncnc(Nc3ccc(OCc4ccccc4)cc3)c2cc1OC,90.6
CC(C)c1nn(-c2c(Cl)cccc2Cl)c2nc(Cc3ccc(OCCO)cc3)[nH]c(=O)c12,101
O=C(Nc1ccc(Cl)cc1)c1ccccc1NCc1ccncc1,110
CCOc1cc2ncnc(Nc3cccc(Br)c3)c2cc1OCC,107
CC(C)[C@H](CO)Nc1nc(Nc2cccc(Cl)c2)c2ncn(C(C)C)c2n1,28
Cn1cc(/C=C2\C(=O)Nc3ccc(S(N)(=O)=O)cc32)c2ccccc21,88.3
O=c1cc(N2CCOCC2)oc2c1ccc1ccccc12,101
CS(=O)(=O)CCNCc1ccc(-c2ccc3ncnc(Nc4ccc(OCc5cccc(F)c5)c(Cl)c4)c3c2)o1,105
O=C1NC(=O)/C(=C/c2ccc3nccnc3c2)S1,101
COc1ccc(-c2cnc3c(-c4ccsc4)cnn3c2)cc1,90.3
COc1cc2ncnc(N3CCN(C(=O)Nc4ccc(Oc5ccccc5)cc4)CC3)c2cc1OC,81.6
CN(C)CCCn1cc(C2=C(c3c[nH]c4ccccc34)C(=O)NC2=O)c2ccccc21,99.1
Cc1nc(Nc2ncc(C(=O)Nc3c(C)cccc3Cl)s2)cc(N2CCN(CCO)CC2)n1,96.6
COc1cc2ncc(-c3ccccc3)nc2cc1OC,90.1
Nc1[nH]nc2nnc(-c3c(-c4ccccc4)nn4ccccc34)cc12,109
C[S+]([O-])c1ccc(-c2nc(-c3ccncc3)c(-c3ccc(F)cc3)[nH]2)cc1 (stereo not shown),95.7

# Repeated from above (sample 2):
Compound,inhibition
COc1ccc2c(O[C@@H]3C[C@H]4C(=O)N[C@]5(C(=O)O)CC5/C=C\CCCCC[C@H](NC(=O)OC5CCCC5)C(=O)N4C3)cc(-c3csc(NC(=O)C(C)C)n3)nc2c1C (stereo partly shown),-18.6%
CSc1cccnc1N1CCN(Cc2nc3ccccc3[nH]2)CC1,-16.4%
C[C@H](c1ccc(F)cc1)N(Cc1ccc(Cl)c(C(=O)O)c1)C(=O)c1cnc2ccccc2c1,-9.88%
C[C@@H]1CN(c2cc(-c3n[nH]c4ccc(OC5(C)CC5)cc34)ncn2)C[C@H](C)O1,5.96%
CN(C)C(=O)c1sc2nc(N3CCC(S(C)(=O)=O)CC3)cc(C(F)(F)F)c2c1N,27.9%
Nc1cnc(N2CCc3cc(S(=O)(=O)Nc4c(F)cc(Cl)cc4F)cc(N4CCCC4=O)c32)nc1,-2.65%
CNC(=O)c1cc(C(=O)N[C@H]2[C@@H]3COC[C@@H]32)cc2c1O[C@H](CF)[C@H]2c1ccccc1,9.06%
